Results of several laboratories.
Protocols differ between the studies behind these lines. “And” joins repeats or separate records; there may be more than shown. ± gives the spread as reported.

COc1ccc2cc1Oc1ccc(cc1)C[C@H]1c3c(cc4c(c3Oc3cc5c(cc3OC)CCN(C)[C@@H]5C2)OCO4)CCN1C — inhibition (SARS-CoV-2; viral replication; Vero E6, USA-WA1/2020; 2.5 µM): 40.6%
O=C(CSc1nc2ccccc2c(=O)[nH]1)NNC(=O)c1ccccc1Br — inhibition (SARS-CoV-2; virucidal activity, plaque reduction; 31.25 µM): 25.6 ± 5.1%
CN(C)c1ccc(N(Cc2cc(Cl)cs2)C(=O)Cc2cncc3cccc(O)c23)cc1 — inhibition (SARS-CoV-2; viral replication, measured: nucleocapsid; NHBE, Omicron BA.5; 1 µM, 3 h pretreatment): 84.8%
Cn1cnc(Cn2c(=O)[nH]/c(=N\c3cc4cn(C)nc4cc3Cl)n(Cc3cc(F)c(F)cc3F)c2=O)n1 — patients with adverse event (human, moderate renal impairment; oral, 375 mg, hypertriglyceridaemia TEAE, Mild severity): 0%
O=C(O[C@@H]1Cc2c(O)cc(O)cc2O[C@@H]1c1cc(O)c(O)c(O)c1)c1cc(O)c(O)c(O)c1 — inhibition (SARS-CoV-2; viral cytopathic effect; Vero E6; 1.562 µM): 0%
CC[C@H](C)[C@H](NC(=O)[C@H](CC(C)C)NC(=O)[C@H](Cc1c[nH]c2ccccc12)NC(=O)[C@H](CCC(N)=O)NC(=O)[C@@H](NC(=O)[C@H](Cc1ccccc1)NC(=O)[C@H](C)NC(=O)[C@H](CCCCNC(=O)COCCOCCNC(=O)COCCOCCNC(=O)CC[C@H](NC(=O)CCCCCCCCCCCCCCCCCCC(=O)O)C(=O)O)NC(=O)[C@H](CCC(N)=O)NC(=O)[C@H](C)NC(=O)[C@@H](NC(=O)[C@H](CCCCN)NC(=O)[C@H](CC(=O)O)NC(=O)[C@H](CC(C)C)NC(=O)C(C)(C)NC(=O)[C@@H](NC(=O)[C@H](CO)NC(=O)[C@H](Cc1ccc(O)cc1)NC(=O)[C@H](CC(=O)O)NC(=O)[C@H](CO)NC(=O)[C@@H](NC(=O)[C@H](Cc1ccccc1)NC(=O)[C@@H](NC(=O)CNC(=O)[C@H](CCC(=O)O)NC(=O)C(C)(C)NC(=O)[C@@H](N)Cc1ccc(O)cc1)[C@@H](C)O)[C@@H](C)O)[C@@H](C)CC)[C@@H](C)CC)C(C)C)C(=O)N[C@@H](C)C(=O)NCC(=O)NCC(=O)N1CCC[C@H]1C(=O)N[C@@H](CO)C(=O)N[C@@H](CO)C(=O)NCC(=O)N[C@@H](C)C(=O)N1CCC[C@H]1C(=O)N1CCC[C@H]1C(=O)N1CCC[C@H]1C(=O)N[C@@H](CO)C(N)=O — subjects with adverse event (measured: treatment-emergent application site reaction; healthy subjects; 0.5 mg, multiple ascending dose): 16.7%
O=C(/C=C/c1ccc(O)c(O)c1/C=C/c1ccc(O)c(O)c1)O[C@H](Cc1ccc(O)c(O)c1)C(=O)O — inhibition (SARS-CoV-2; viral cytopathic effect; Vero E6; 6.25 µM): 0%
O=C(NCCN1CCCCC1)c1ccc(-c2ccc(N3CCSCC3)nc2)cc1 — maximum response (SARS-CoV-2; cytopathic effect; USA_WA1/2020; retest, 8-point, duplicates): 83.4%
CCN1c2ncc(CCOc3cc[n+]([O-])c4ccccc34)cc2C(=O)N(C)c2cccnc21 — inhibition (SARS-CoV-2; viral replication; Vero E6, USA-WA1/2020; 2.5 µM): 43.6%
COc1cc([C@H]2OC[C@]3(O)[C@@H](c4ccc(O)c(OC)c4)OC[C@H]23)ccc1O — inhibition (SARS-CoV-2; viral replication, mNeonGreen reporter virus; 50 µM): 81.6%
CC(C)(C)[C@H](NC(=O)C(F)(F)F)C(=O)N1[C@@H]2CC[C@@H](C2)[C@H]1C(=O)N[C@H](C#N)C[C@@H]1CCNC1=O — inhibition (SARS-CoV-2; viral replication, qRT-PCR viral RNA; Vero E6; 1 µM): 0%
CC(C)(C)[C@H](NC(=O)C(F)(F)F)C(=O)N1C[C@H]2[C@@H]([C@H]1C(=O)N[C@H](C#N)C[C@@H]1CCNC1=O)C2(C)C — inhibition (SARS-CoV-2; viral replication, infectious virus; Vero E6; 0.5 µM): 93.8%
CCN(CCO)CCCC(C)Nc1ccnc2cc(Cl)ccc12 (stereo not shown) — inhibition (SARS-CoV-2; 15 µM): 17.9%
CC1(C)CCC(C)(C)c2cc(NC(=O)c3ccc(C(=O)O)cc3)ccc21 — inhibition (SARS-CoV-2; viral replication; Vero C1008, USA-WA1/2020; 2.5 µM, reconfirmation): 48.1%
Cc1nn(-c2ccc(Cl)cc2)c2c1C(c1ccc(Cl)cc1)C(C#N)=C(N)O2 (stereo not shown) — inhibition (SARS-CoV-2; viral replication; Vero; 1 µM): 12.9%
CCOC(=O)c1c(CSc2ccccc2)n(C)c2cc(Br)c(O)c(CN(C)C)c12 — inhibition (SARS-CoV-2; Vero C1008, MEX-BC2/2020; 7.5 µM, 96 h): 17.5%
OC[C@H]1O[C@H]([S-])[C@H](O)[C@@H](O)[C@@H]1O.[Au+] — inhibition (SARS-CoV-2; viral replication; USA-WA1/2020; 2.5 µM): 44.2%
CC(C)(C)[C@H](NC(=O)C(F)(F)F)C(=O)N1CC2(CC2)C[C@H]1C(=O)N[C@H](C#N)C[C@@H]1CCNC1=O — inhibition (SARS-CoV-2; viral replication, qRT-PCR viral RNA; Vero E6; 1 µM): 35%
CC[C@H](NC(=O)[C@H](CS(=O)(=O)CC1CC1)N[C@@H](c1ccc(F)cc1)C(F)(F)F)C(=O)C(=O)NC1CC1 — inhibition (SARS-CoV-2; viral replication; Vero C1008, USA-WA1/2020; 2.5 µM, reconfirmation): 94.9%
Nc1ncnc2c([C@@H]3N[C@H](CO)[C@@H](O)[C@H]3O)c[nH]c12 — inhibition (Middle East respiratory syndrome-related coronavirus; viral replication; Vero C1008, Jordan N3; 1.6 µM): 6%
COc1c2c(cc3oc(-c4ccccc4)cc(=O)c13)OC(C)(C)C=C2 — inhibition (SARS-CoV-2; viral replication; mNeonGreen reporter; 50 µM): 97.8%
Cn1cnc(Cn2c(=O)[nH]/c(=N\c3cc4cn(C)nc4cc3Cl)n(Cc3cc(F)c(F)cc3F)c2=O)n1 — inhibition (SARS-CoV-2; viral replication; Vero C1008, XBB.1; 0.05144 µM): 20%
O=C(CSc1nc2c(c(=O)[nH]1)CCCC2)NNC(=O)c1ccc(Cl)cc1 — inhibition (SARS-CoV-2; viral replication, plaque reduction; 62.5 µM): 40 ± 3.3%
Cc1nn(-c2ccc(Cl)cc2)c2c1C(c1ccc(Cl)c(Cl)c1)C(C#N)=C(N)O2 (stereo not shown) — inhibition (SARS-CoV-2; viral replication; Vero; 10 µM): 27.8%
CC(C)=CCc1c(O)ccc(C(=O)/C=C/c2ccc(O)cc2)c1O — inhibition (SARS-CoV-2; viral cytopathic effect; Vero E6; 25 µM): 0%
CN1CCCC2(C1)CN(Cc1cccnc1)c1ccc(C(=O)NCC3CCCCC3)cc12 (stereo not shown) — AC50 (SARS-CoV-2; cytopathic effect, cell-based CPE; USA_WA1/2020; round 2, 5-point dilution): 14.1 µM
Cc1nn(-c2ccc(Cl)cc2)c2c1C(c1ccc(I)cc1)C(C#N)=C(N)O2 (stereo not shown) — inhibition (SARS-CoV-2; viral replication; Vero; 1 µM): 7.42%
O=C(CSc1nc2c(c(=O)[nH]1)CCCC2)NNC(=O)c1ccc([N+](=O)[O-])cc1 — inhibition (SARS-CoV-2; virucidal activity, plaque reduction; 125 µM): 38.9 ± 2.31%
COc1ccc([C@H]2COc3cc(O)ccc3C2)c(O)c1 — inhibition (SARS-CoV-2; viral replication; mNeonGreen reporter; 50 µM): 102%
c1ccc2sc(C3(N4CCCCC4)CCCCC3)cc2c1 — inhibition (SARS-CoV-2; viral replication; Vero E6, USA-WA1/2020; 2.5 µM): 52.7%
CNC(=O)[C@@H](NC(=O)[C@H](CC(C)C)[C@H](O)C(=O)NO)C(C)(C)C — remaining activity (Daboia russelii venom proteases (SVMP); protease activity, inhibitor; KL population; 100 µM, together with: azocasein substrate; reference: venom alone): 0%
Cc1nn(-c2ccc(Cl)cc2)c2c1C(c1c(Cl)cccc1Cl)C(C#N)=C(N)O2 (stereo not shown) — inhibition (SARS-CoV-2; viral replication; Vero; 10 µM): 46.2%
COc1ccc(C[C@@H]2c3cc(Oc4cc(C[C@@H]5c6cc(O)c(OC)cc6CCN5C)ccc4O)c(OC)cc3CCN2C)cc1 — inhibition (SARS-CoV-2; viral cytopathic effect; Vero E6; 12.5 µM): 0%
CCCCc1oc2ccc(C(=O)OC(C)C)cc2c1C(=O)c1ccc(CCCN(CCCC)CCCC)cc1 — inhibition (SARS-CoV-2; viral replication; Vero C1008, USA-WA1/2020; 2.5 µM, reconfirmation): 40.8%
Cc1nn(-c2ccc(Cl)cc2)c2c1C(c1ccc(-c3ccccc3)cc1)C(C#N)=C(N)O2 (stereo not shown) — inhibition (SARS-CoV-2; viral replication; Vero; 1 µM): 10.9%
CCOC(=O)[C@H]1O[C@@H]1C(=O)N[C@@H](CC(C)C)C(=O)NCCC(C)C — inhibition (SARS-CoV-2; 30 µM): 48.9% and 88.3%
CC1=CCC[C@@H](C)[C@]1(C)CC[C@@]1(C)[C@@H]2CC[C@]3(C)[C@H](CC[C@]4(C)c5c(C(O)C(=O)O)ccc(O)c5C[C@@H]34)[C@@]2(C)CC[C@@H]1O (stereo partly shown) — inhibition (SARS-CoV-2; viral replication, mNeonGreen reporter virus; 50 µM): 5.42%
Cc1nn(-c2ccc(Cl)cc2)c2c1C(c1ccc(F)cc1F)C(C#N)=C(N)O2 (stereo not shown) — inhibition (SARS-CoV-2; viral replication; Vero; 10 µM): 48.5%
C[C@@H]1CN(c2ncc(C(O)CO)cc2Cl)CCN1c1nc2c(-c3cc(F)c(F)c(F)c3)cc(C(F)(F)F)cc2[nH]1 (stereo partly shown) — inhibition (SARS-CoV-2; viral replication; Vero E6, USA-WA1/2020; 2.5 µM): 69.5%
CNC(=O)[C@@]1(O)C(=O)n2c(c(OC)c3ccccc32)-c2[nH]c3ccc(Cl)cc3c21 — inhibition (SARS-CoV-2; viral replication, mNeonGreen reporter virus; 50 µM): 0.44%

Excerpt of the above:
Nc1ncnc2c([C@@H]3N[C@H](CO)[C@@H](O)[C@H]3O)c[nH]c12 — inhibition (Middle East respiratory syndrome-related coronavirus; viral replication; Vero C1008, Jordan N3; 1.6 µM): 6%
COc1c2c(cc3oc(-c4ccccc4)cc(=O)c13)OC(C)(C)C=C2 — inhibition (SARS-CoV-2; viral replication; mNeonGreen reporter; 50 µM): 97.8%
Cn1cnc(Cn2c(=O)[nH]/c(=N\c3cc4cn(C)nc4cc3Cl)n(Cc3cc(F)c(F)cc3F)c2=O)n1 — inhibition (SARS-CoV-2; viral replication; Vero C1008, XBB.1; 0.05144 µM): 20%
O=C(CSc1nc2c(c(=O)[nH]1)CCCC2)NNC(=O)c1ccc(Cl)cc1 — inhibition (SARS-CoV-2; viral replication, plaque reduction; 62.5 µM): 40 ± 3.3%
Cc1nn(-c2ccc(Cl)cc2)c2c1C(c1ccc(Cl)c(Cl)c1)C(C#N)=C(N)O2 (stereo not shown) — inhibition (SARS-CoV-2; viral replication; Vero; 10 µM): 27.8%
